Assay results of several laboratories.
Each line is one published result; not all experiments were run side by side. Changes are numbered by the printed parent chain.
MBNL1: MBNL1 1-92 (Homo sapiens, UniProt Q9NR56)
Sequence of UniProt Q9NR56 (whole entry, looked up): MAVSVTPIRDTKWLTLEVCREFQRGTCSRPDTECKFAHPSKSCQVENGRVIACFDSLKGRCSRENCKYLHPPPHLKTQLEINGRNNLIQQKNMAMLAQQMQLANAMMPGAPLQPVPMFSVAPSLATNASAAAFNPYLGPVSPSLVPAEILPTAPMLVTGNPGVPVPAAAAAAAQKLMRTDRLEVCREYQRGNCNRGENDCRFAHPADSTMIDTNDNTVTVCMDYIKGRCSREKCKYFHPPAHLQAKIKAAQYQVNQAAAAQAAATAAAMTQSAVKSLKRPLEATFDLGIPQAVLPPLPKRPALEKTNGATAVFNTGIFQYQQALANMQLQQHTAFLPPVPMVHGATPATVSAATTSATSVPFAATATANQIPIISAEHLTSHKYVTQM
cas1/cas2 1-305; 1-94: cas1/cas2 1-305; 1-94 (Escherichia coli)
NAC transcription factor full length assumed: NAC transcription factor full length assumed (Triticum aestivum, UniProt A0A7G7XYH6)
FGFR3: FGFR3 23-375 (Homo sapiens, UniProt P22607)
T1: cas1/cas2 1-305; 1-94 (Escherichia coli); chain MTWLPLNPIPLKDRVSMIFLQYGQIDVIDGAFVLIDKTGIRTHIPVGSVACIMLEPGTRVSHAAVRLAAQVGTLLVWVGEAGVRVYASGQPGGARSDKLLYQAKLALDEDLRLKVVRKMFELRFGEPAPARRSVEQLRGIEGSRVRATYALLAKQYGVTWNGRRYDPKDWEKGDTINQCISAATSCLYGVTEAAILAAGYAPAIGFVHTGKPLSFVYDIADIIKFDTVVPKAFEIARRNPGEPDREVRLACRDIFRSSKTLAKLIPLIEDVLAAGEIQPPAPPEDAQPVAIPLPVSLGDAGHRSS; chain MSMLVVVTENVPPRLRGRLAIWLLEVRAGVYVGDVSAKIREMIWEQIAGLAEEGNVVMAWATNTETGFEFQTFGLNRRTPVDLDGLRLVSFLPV
P1: APOBEC3G/EYFP (Homo sapiens); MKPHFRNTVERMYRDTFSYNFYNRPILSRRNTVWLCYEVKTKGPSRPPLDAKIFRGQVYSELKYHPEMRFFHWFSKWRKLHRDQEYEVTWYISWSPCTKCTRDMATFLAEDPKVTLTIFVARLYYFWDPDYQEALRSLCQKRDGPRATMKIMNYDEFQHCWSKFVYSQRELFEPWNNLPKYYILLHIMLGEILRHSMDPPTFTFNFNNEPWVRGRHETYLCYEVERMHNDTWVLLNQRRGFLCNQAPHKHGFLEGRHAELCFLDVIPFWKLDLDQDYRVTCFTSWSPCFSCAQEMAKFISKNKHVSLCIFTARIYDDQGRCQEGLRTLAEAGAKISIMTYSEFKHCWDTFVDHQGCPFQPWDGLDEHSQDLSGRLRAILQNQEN; partner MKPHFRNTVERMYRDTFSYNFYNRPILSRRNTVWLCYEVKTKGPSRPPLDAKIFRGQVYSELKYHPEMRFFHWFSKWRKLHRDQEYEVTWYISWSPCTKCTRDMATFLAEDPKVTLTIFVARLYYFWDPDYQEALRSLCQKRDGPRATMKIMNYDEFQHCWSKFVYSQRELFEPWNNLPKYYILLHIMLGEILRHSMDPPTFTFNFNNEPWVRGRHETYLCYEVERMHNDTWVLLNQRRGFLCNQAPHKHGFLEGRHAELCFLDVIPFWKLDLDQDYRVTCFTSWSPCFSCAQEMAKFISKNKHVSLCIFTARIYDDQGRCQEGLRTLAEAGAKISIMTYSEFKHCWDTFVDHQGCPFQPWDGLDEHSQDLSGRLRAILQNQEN
B1: EzrA 216-562 (Bacillus subtilis, UniProt O34894); chain PKLLADCKQTVPGQIAKLKDGYGEMKEKGYKLEHIQLDKELENLSNQLKRAEHVLMTELDIDEASAILQLIDENIQSVYQQLEGEVEAGQSVLSKMPELIIAYDKLKEEKEHTKAETELVKESYRLTAGELGKQQAFEKRLDEIGKLLSSVKDKLDAEHVAYSLLVEEVASIEKQIEEVKKEHAEYRENLQALRKEELQARETLSNLKKTISETARLLKTSNIPGIPSHIQEMLENAHHHIQETVNQLNELPLNMEEAGAHLKQAEDIVNRASRESEELVEQVILIEKIIQFGNRFRSQNHILSEQLKEAERRFYAFDYDDSYEIAAAAVEKAAPGAVEKIKADISA
P2: SFI1 residues 1-296 (Saccharomyces cerevisiae); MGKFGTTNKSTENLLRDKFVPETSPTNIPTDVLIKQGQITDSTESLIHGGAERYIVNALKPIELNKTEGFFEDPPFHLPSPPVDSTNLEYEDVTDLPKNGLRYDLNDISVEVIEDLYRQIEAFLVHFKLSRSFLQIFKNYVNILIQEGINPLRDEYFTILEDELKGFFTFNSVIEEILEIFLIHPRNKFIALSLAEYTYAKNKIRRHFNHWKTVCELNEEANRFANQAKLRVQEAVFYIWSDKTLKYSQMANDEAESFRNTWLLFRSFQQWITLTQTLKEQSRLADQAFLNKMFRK
P3: Fgfr1 (Mus musculus); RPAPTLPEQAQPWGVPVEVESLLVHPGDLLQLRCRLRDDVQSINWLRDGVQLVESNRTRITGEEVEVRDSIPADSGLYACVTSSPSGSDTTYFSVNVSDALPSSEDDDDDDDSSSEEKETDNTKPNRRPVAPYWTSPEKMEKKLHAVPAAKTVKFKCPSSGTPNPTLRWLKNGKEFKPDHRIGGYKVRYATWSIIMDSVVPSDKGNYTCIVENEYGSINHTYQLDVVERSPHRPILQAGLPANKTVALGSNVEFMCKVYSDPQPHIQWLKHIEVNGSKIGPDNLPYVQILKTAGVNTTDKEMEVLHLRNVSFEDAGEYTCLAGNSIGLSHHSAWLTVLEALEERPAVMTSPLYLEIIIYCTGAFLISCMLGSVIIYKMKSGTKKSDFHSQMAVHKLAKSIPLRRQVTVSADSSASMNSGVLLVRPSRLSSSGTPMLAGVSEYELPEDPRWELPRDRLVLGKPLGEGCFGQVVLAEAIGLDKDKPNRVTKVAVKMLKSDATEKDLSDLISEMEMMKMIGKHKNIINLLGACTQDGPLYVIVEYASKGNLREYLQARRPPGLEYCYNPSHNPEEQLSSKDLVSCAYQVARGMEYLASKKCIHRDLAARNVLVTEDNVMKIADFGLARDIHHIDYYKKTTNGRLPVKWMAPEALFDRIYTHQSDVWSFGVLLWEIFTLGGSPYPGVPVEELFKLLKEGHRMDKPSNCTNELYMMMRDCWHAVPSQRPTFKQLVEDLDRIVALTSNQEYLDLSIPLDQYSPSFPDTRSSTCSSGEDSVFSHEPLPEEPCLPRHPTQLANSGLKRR
P4: ALIS5 (Arabidopsis thaliana); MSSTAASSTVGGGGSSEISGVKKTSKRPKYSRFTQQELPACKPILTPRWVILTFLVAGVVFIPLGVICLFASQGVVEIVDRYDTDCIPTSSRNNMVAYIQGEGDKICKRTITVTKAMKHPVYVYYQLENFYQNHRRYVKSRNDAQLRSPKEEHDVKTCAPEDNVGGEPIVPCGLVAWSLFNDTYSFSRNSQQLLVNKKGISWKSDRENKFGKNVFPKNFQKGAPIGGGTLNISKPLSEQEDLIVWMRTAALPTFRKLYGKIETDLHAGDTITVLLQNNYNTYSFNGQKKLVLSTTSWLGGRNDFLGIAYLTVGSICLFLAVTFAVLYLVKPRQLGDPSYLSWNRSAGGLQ
P5: SNF1 residues 54-391 (Saccharomyces cerevisiae); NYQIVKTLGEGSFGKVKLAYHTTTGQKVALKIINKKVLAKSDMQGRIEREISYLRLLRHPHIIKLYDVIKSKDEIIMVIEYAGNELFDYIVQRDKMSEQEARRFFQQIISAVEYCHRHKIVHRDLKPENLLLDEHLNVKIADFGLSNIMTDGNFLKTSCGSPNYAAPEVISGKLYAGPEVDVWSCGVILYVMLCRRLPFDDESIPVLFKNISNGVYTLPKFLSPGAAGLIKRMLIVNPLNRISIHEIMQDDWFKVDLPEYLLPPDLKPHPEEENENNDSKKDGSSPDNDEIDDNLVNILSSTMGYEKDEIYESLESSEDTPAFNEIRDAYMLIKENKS; partner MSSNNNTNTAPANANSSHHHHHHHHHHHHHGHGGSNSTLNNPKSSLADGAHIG
Sequence of UniProt P94426 (whole entry, looked up): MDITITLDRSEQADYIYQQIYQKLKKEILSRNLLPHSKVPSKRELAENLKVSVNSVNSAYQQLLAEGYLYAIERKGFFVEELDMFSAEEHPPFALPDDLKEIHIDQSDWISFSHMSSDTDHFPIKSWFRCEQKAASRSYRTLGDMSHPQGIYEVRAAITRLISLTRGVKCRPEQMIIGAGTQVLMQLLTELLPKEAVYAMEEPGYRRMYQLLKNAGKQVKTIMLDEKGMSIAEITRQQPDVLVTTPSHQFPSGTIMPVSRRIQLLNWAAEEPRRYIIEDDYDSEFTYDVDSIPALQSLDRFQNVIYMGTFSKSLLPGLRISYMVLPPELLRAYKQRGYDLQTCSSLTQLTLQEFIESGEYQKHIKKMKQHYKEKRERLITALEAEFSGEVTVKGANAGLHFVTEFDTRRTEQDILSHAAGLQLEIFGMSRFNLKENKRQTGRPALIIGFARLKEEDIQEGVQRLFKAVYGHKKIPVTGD
Sequence of UniProt P26358 (whole entry, looked up): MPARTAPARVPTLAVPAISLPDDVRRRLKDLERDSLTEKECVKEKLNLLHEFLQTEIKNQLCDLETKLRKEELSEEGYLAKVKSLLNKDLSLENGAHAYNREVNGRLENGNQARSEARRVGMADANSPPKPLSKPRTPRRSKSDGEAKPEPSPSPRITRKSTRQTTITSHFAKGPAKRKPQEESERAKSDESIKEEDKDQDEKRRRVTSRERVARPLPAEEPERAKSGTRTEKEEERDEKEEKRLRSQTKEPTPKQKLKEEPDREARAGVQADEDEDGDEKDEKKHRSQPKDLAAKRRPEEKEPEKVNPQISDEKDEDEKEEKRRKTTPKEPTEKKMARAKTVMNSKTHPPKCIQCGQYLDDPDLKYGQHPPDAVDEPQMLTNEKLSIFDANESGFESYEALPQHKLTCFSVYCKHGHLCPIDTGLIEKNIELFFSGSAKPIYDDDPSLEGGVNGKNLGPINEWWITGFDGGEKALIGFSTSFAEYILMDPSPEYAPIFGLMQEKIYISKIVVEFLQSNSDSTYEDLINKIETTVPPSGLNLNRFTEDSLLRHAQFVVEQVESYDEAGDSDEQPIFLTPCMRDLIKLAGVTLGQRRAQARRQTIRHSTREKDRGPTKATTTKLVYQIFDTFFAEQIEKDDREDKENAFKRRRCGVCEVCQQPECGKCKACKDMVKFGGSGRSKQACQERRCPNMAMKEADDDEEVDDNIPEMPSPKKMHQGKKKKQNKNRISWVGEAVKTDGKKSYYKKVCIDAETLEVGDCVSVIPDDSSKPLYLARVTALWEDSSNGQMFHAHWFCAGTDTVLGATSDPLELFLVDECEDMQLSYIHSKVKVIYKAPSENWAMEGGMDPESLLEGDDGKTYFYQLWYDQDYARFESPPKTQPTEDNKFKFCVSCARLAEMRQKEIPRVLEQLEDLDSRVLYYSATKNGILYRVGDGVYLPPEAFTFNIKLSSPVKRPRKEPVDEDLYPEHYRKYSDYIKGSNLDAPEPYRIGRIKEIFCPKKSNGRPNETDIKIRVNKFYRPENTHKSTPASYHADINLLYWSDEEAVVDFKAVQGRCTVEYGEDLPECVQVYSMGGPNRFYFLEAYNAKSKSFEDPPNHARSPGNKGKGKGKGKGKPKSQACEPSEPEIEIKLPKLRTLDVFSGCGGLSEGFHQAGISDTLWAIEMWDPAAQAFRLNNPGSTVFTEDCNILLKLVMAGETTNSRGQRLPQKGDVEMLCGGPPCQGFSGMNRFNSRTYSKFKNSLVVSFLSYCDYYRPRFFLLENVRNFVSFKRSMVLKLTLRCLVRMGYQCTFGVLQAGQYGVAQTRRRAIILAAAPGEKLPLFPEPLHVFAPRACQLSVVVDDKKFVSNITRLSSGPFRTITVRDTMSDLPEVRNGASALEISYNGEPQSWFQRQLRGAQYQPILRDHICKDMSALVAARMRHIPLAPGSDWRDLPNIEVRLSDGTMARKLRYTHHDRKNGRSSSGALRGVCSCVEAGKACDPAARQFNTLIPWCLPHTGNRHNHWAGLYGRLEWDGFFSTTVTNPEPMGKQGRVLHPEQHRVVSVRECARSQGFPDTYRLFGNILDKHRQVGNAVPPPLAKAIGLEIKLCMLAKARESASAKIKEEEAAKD
Sequence of UniProt P49960 (whole entry, looked up): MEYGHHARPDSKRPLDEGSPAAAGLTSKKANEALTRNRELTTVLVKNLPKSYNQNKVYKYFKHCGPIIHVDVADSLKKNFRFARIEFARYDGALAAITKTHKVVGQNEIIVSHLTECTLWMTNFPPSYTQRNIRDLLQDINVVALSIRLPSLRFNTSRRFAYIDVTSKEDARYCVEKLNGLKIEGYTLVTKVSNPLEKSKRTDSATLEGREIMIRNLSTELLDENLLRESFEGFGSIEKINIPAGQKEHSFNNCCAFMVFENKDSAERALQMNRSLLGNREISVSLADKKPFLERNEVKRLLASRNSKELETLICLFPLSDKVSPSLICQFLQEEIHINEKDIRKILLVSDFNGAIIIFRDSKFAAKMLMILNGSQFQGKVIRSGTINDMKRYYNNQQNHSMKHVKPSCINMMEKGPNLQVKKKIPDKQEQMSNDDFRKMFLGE

`GUCUCGCUUUUCCCCUCCGCUGCGGCC (ssRNA (Homo sapiens); hairpin)` — result for binding: “binds” (MBNL1; NMR titration; folded RNA).
`DNA 1 ATTTCAGCTACTCCGATGGCCCATATGCGGATC / DNA 2 CTAGGGCATATGGGCCATCGGAGTAGC (dsDNA)`: binding “binds” (T1, cas1/cas2 1-305; 1-94 (Escherichia coli); EMSA; double-stranded DNA; binary complex, partial dissociation).
`P1 F126A` gave a relative binding of 0.24 (APOBEC3G Renilla luciferase fusion (Homo sapiens); BRET; 293T; read off a plot; baseline: unchanged protein, higher = more binding).
`TATATGTTGTTAATATTGACAAGAAACAAGCTGCT (dsDNA)`: binding “binds” (NAC transcription factor full length assumed; EMSA; double-stranded DNA, one strand shown).
`B1 (EzrA 216-562)` has a Kd of less than 10 µM (ftsZ (Bacillus subtilis, UniProt P17865); SPR; pH 6.5, read off a plot).
For `CGCGGGGUGGAGCAGCCUGGUAGCUCGUCGGGCUCAUAACCCGAAGAUCGUCGGUUCAAAUCCGGCCCCCGCAACCA (tRNA (Escherichia coli); cloverleaf, unmodified)`, binding read “no binding” (trmJ 1-246 R82A (Escherichia coli, UniProt P0AE01); EMSA; folded RNA; Mg2+ 5 mM, added: sinefungin 500 µM).
`CCTTCTGATACCATCAAAAAGTTATAATTGGTACTTTTCATCATACCAAAGAG (dsDNA)` — result for binding: “binds” (gabR full length assumed (Bacillus subtilis, UniProt P94426); SEC-MALLS; double-stranded DNA, one strand shown; without GABA).
`P1 Y125A` has a relative binding of 0.35 (APOBEC3G Renilla luciferase fusion (Homo sapiens); BRET; 293T; read off a plot; baseline: unchanged protein, higher = more binding).
`CCUGUCUCGCUUUUCCCCUCCGCUGCGGCCAC (ssRNA (Homo sapiens); hairpin)`: binding “binds” (MBNL1; NMR titration; folded RNA).
For `P2 S10D T11D S42D`, the relative interaction was 0.57 (SPC42 fragment (Saccharomyces cerevisiae); yeast two-hybrid; read off a plot, added: Cdc31; baseline: unchanged protein, higher = stronger interaction).
Under binding, `GTATACCTGCAGCTGAGGCGAGCCGTTGGTGTGGATGGCAGGGGCAGGATTCGACTCTAGAGCGCA (ssDNA; stem-loop)` is recorded as “no binding” (FGFR3; EMSA; single-stranded DNA; added: Mg2+ 5 mM).
`DNA 1 CCACTGCTCACGTACAGAGCTGT / DNA 2 CAGCTCTGTACGTGAGCAGTGGA (dsDNA; 23 bp duplex)`: binding “no binding” (TDG 111-308 N140A (Homo sapiens, UniProt Q13569); EMSA; double-stranded DNA).
`DNA 1 ATTTCAGCTACTCCGATGGCCCATATGCGGATC / DNA 2 CTAGGGCATATGGGCCATCGGAG (dsDNA)` — result for binding: “binds” (T1, cas1/cas2 1-305; 1-94 (Escherichia coli); EMSA; double-stranded DNA; binary complex, partial dissociation).
For `CCUCCGCUGC (ssRNA (Homo sapiens))`, binding read “binds” (MBNL1; NMR titration; RNA).
`GGGAGUGUGUACGAGGCAUUAGGCCGCCGAUGGUUUUGUGGCCGUUUGAGGUUCCUACGGCGGCUU (structured RNA; 2'-fluoro C/U, 3' inverted dT)` — result for binding: “binds” (Fgfr3 21-369 (Mus musculus, UniProt Q61851); bead flow cytometry; folded RNA; 100 nM).
For `P3 L402A V408A Y442F Y745F Y755F`, the signal was 85 puncta (PTK2 (Mus musculus); proximity ligation assay; embryo sections; read off a plot; higher = more proximity).
For `ATTTCTCCAAGTTTCTAGACAAGTCTCTCA (dsDNA)`, binding read “binds” (Heat stress transcription factor 1-340 (Actinidia chinensis, UniProt A0A2R6Q325); EMSA; double-stranded DNA, one strand shown).
For `AGTTGCGTTCGCGTTAGGAAGGTTGCGTTAGCGTTGCTG (ssDNA; single strand, non-G4)`, binding read “no binding” (DNMT1 1-1616 (Homo sapiens, UniProt P26358); ELISA; single-stranded DNA).
For `TATATGTTGTTAATATTGCACAGAAACAAGCTGCT (dsDNA)`, binding read “no binding” (NAC transcription factor full length assumed; competition EMSA; double-stranded DNA, one strand shown).
`P4 N181Q` has a relative binding of 0.09 (ALA2 (Arabidopsis thaliana); pull-down; yeast membranes; read off a plot; baseline: unchanged protein, higher = more binding).
`P5 T157E` has a relative interaction of 150% (GAL4 BD/SNF1 residues 1-53 (Saccharomyces cerevisiae); yeast two-hybrid; read off a plot; baseline: NTD/CTD on glucose, higher = stronger interaction).
Under binding, `CCGCCGAUGGUUUUGUGGCCGUUUGAGGUUCCUACGGCGG (structured RNA; hairpin, 2'-fluoro C/U, 3' inverted dT)` is recorded as “binds” (FGFR3; bead flow cytometry; folded RNA; 100 nM).
`GUUCGCGAAGUAACCCUUCGUGGACAUUUGGUCAAUUUGAAACAAUACAGAGAUGAUCAGCAGUUCCCCUGCAUAAGGAUGAACCGUUUUACAAAGAGAGGUAUUUCGUUUU (structured RNA)` — result for binding: “binds” (PRP24 1-444 (Saccharomyces cerevisiae, UniProt P49960); EMSA; folded RNA; Hill coefficient about 0.5).
